Assay results from different studies.
Every numbered part comes from another study and shows a few of its results, in no order. “And” joins repeats or separate records; there may be more than shown.
UniProt Q13976, sequence (whole entry, looked up): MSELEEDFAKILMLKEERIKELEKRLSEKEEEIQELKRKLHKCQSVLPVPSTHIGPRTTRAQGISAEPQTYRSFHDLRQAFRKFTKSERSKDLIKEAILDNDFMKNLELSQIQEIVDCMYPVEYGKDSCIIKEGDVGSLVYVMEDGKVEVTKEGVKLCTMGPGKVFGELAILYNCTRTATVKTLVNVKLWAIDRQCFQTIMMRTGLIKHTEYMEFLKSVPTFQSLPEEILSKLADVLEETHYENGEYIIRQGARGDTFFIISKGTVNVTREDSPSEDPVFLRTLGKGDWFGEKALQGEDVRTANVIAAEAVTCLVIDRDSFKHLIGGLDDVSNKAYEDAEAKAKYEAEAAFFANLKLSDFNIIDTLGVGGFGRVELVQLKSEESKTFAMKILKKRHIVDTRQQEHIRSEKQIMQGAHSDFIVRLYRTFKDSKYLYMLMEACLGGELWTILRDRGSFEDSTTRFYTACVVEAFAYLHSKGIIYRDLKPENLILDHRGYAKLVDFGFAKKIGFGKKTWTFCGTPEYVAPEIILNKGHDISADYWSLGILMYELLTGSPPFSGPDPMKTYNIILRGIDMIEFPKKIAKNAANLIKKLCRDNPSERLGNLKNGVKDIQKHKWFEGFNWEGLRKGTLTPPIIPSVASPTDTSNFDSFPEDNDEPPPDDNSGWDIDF
UniProt O14920, sequence (whole entry, looked up): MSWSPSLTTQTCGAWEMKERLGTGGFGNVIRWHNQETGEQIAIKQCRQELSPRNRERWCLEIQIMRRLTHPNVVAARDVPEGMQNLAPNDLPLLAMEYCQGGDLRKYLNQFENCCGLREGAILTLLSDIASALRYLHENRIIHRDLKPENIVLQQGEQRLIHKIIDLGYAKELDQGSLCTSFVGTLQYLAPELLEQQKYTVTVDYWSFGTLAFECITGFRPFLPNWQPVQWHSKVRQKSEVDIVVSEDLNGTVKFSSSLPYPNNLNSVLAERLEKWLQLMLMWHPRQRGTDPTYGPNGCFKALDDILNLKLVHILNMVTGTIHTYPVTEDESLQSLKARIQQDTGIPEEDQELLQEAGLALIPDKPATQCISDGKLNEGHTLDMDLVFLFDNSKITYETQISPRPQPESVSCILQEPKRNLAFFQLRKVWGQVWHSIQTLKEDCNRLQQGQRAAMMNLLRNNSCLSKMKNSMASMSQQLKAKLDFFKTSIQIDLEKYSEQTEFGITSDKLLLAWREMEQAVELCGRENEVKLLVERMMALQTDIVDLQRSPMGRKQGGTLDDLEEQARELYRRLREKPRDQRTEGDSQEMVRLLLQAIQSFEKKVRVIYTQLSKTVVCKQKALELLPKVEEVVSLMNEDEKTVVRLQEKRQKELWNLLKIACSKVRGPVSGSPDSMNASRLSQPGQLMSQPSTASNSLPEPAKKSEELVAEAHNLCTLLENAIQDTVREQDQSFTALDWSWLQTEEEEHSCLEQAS
UniProt P45984, sequence (whole entry, looked up): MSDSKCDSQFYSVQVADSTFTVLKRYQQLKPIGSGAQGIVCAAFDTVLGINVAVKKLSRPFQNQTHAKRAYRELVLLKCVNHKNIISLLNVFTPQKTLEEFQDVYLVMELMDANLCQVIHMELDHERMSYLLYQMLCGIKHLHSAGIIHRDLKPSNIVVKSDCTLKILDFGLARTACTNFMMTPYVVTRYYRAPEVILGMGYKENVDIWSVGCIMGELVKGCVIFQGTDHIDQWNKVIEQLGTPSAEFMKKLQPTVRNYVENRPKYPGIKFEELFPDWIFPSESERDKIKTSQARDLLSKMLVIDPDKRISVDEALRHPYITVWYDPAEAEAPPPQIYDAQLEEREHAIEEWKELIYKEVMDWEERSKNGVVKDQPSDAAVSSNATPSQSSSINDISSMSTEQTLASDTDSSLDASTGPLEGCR
UniProt Q16288, sequence (whole entry, looked up): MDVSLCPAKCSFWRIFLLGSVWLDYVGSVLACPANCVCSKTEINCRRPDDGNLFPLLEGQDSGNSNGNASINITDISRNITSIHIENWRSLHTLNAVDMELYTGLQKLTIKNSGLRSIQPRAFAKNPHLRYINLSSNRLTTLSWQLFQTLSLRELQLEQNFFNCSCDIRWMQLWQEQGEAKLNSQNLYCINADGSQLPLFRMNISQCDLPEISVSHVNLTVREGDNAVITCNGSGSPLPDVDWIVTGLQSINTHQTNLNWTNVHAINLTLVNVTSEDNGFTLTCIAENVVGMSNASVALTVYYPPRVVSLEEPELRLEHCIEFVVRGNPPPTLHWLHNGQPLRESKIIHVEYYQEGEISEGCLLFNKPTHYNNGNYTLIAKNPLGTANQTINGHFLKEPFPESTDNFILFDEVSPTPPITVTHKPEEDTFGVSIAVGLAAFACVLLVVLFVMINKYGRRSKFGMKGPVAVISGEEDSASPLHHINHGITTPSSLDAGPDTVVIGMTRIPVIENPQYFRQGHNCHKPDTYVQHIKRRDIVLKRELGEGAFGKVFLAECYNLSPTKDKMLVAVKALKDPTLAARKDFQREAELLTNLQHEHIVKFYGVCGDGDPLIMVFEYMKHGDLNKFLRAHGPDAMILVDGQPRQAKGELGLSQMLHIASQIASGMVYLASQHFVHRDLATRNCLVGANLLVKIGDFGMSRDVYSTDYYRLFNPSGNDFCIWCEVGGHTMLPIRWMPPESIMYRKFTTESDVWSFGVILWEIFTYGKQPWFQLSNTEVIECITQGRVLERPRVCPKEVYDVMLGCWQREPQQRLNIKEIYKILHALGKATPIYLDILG
UniProt Q96RR4, sequence (whole entry, looked up): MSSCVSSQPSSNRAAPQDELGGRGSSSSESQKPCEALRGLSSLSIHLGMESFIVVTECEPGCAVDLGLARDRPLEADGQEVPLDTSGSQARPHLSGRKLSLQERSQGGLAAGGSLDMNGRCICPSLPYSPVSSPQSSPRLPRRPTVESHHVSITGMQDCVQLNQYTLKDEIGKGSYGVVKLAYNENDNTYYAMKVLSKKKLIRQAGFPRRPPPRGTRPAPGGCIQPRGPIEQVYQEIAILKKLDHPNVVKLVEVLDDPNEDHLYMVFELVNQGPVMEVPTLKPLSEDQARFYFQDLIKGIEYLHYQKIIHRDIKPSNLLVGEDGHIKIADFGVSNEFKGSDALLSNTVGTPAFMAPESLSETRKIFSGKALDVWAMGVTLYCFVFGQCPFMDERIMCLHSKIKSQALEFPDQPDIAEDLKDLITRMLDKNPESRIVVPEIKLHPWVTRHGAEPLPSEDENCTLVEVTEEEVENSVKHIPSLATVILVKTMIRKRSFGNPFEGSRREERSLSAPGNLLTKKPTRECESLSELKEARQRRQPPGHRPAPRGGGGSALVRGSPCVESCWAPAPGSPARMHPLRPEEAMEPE
UniProt Q07912, sequence (whole entry, looked up): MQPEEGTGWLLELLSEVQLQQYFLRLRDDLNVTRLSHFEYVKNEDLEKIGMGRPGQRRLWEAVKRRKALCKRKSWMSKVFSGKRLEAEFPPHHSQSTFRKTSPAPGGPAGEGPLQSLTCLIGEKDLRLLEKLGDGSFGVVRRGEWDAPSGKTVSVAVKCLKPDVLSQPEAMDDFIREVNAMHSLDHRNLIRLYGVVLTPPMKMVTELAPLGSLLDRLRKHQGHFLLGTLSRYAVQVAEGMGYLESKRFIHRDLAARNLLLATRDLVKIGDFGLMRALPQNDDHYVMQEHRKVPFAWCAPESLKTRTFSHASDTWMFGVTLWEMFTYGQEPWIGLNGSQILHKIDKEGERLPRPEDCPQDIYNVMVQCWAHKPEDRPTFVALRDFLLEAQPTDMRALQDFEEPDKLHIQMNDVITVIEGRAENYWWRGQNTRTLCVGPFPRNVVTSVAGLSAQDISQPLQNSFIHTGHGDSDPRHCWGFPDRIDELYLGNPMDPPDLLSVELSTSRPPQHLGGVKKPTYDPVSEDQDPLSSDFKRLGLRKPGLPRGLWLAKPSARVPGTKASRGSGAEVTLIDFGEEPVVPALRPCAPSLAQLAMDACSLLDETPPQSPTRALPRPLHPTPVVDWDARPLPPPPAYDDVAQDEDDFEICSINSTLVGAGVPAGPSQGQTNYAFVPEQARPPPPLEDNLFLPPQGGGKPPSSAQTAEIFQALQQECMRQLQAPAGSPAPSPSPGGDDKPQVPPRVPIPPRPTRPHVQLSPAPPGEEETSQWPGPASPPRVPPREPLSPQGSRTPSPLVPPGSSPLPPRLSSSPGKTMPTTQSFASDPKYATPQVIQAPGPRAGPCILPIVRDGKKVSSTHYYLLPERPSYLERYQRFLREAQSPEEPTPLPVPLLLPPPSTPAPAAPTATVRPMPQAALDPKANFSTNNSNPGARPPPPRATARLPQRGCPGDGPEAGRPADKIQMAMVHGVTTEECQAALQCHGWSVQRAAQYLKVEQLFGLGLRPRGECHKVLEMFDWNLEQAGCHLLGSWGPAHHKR
UniProt P07948, sequence (whole entry, looked up): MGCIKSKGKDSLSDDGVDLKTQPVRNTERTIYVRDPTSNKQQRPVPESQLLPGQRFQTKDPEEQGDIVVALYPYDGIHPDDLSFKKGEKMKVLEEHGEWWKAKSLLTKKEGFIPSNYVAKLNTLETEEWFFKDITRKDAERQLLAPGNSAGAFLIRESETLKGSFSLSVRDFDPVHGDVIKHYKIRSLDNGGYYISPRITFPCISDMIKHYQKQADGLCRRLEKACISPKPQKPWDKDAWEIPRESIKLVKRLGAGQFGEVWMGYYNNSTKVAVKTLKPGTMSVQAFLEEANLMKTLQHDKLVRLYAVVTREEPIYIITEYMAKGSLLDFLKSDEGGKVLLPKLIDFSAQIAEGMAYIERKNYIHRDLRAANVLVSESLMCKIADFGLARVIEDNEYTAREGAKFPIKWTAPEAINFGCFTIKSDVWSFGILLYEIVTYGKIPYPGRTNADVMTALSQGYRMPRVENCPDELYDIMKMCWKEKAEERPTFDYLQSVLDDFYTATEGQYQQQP

Block 1
Structure (SMILES): CCC(=O)N[C@@H]1CC[C@H](C(=O)N(C)c2ccc(-c3nc4ccccc4o3)cc2)C1
Observed: cell-free assay
Method: competition with immobilised ligand
Concentration: 1 µM
| target | remaining binding [%] |
| --- | --- |
| NTRK3 (Homo sapiens, UniProt Q16288) | 100 |
| TNK2 (Homo sapiens, UniProt Q07912) | 100 |
| CSNK1G3 (Homo sapiens, UniProt Q9Y6M4) | 100 |
| PRKG1 (Homo sapiens, UniProt Q13976) | 100 |
| ERBB3 (Homo sapiens, UniProt P21860) | 100 |

Block 2
Method: PRP chromatography
Setting: linear fit, 1 mL
| SMILES | logD 1,9-decadiene/water [log units] |
| --- | --- |
| CC(C)C[C@@H]1NC(=O)[C@H](C(C)C)NC(=O)[C@H](C)NC(=O)[C@H](CCC(=O)N2CCCC2)NC(=O)[C@@H](CCC(=O)N2CCCC2)NC(=O)[C@H](CC(C)C)NC(=O)[C@@H](CC(C)C)NC1=O | -4.38 |
| CC(C)C[C@@H]1NC(=O)[C@H](CC(C)C)NC(=O)[C@@H](CC(C)C)NC(=O)[C@H](C)NC(=O)[C@H](C)NC(=O)[C@@H](CC(C)C)NC(=O)[C@H](C)NC1=O | -1.68 |
| CC(C)C[C@@H]1NC(=O)[C@H](CC(C)C)NC(=O)[C@@H](C(C)C)NC(=O)[C@H](C)NC(=O)[C@@H](Cc2cscn2)NC(=O)[C@@H](CC(C)C)NC(=O)[C@H](C)NC1=O | -1.68 |
| CC(C)C[C@@H]1NC(=O)[C@H](C(C)C)NC(=O)[C@H](CC(C)C)NC(=O)[C@@H](CC(C)C)NC(=O)[C@H](CC(C)C)NC(=O)[C@@H](C)NC(=O)[C@@H](CC(C)C)NC1=O | 0.717 |
| CC(C)C[C@@H]1NC(=O)[C@H](CC(C)C)NC(=O)[C@H](CC(C)C)NC(=O)[C@H](CC(C)C)NC(=O)[C@@H](CCC(=O)N2CCCC2)NC(=O)[C@H](C)NC(=O)[C@H](C)NC1=O | -1.84 |
| CC(C)C[C@@H]1NC(=O)[C@H](C(C)C)NC(=O)[C@H](CCC(=O)N2CCCC2)NC(=O)[C@H](CC(C)C)NC(=O)[C@@H](CCC(=O)N2CCCC2)NC(=O)[C@H](CC(C)C)NC(=O)[C@@H](CC(C)C)NC1=O | -0.936 |

Block 3
Compound: Cc1ccc(S(=O)(=O)/C=C/C#N)cc1
Observed: enzyme activity
Mode: inhibitor
Concentration: 0.5 µM
Relative to: control
| target | remaining activity [%] |
| --- | --- |
| DAPK2 (Homo sapiens, UniProt Q9UIK4) | 100 |
| NEK2 (Homo sapiens, UniProt P51955) | 101 |
| Cyclin-dependent kinase 5, with p25 (CDK5, Homo sapiens, UniProt Q00535) | 86.8 |
| CHEK2 (Homo sapiens, UniProt O96017) | 107 |
| TGFBR1 (Homo sapiens, UniProt P36897) | 103 |
| OXSR1 (Homo sapiens, UniProt O95747) | 103 |
| STK10 (Homo sapiens, UniProt O94804) | 90.6 |
| MAPK9 (Homo sapiens, UniProt P45984) | 102 |
| CAMK2D (Homo sapiens, UniProt Q13557) | 102 |
| Cyclin-dependent kinase 4, with cyclin D1 (CDK4, Homo sapiens, UniProt P11802) | 103 |
| PRKCA (Homo sapiens, UniProt P17252) | 70.6 |
| Tyrosine-protein kinase Lyn, isoform B (LYN, Homo sapiens, UniProt P07948) | 108 |
| DAPK1 (Homo sapiens, UniProt P53355) | 100 |
| CAMKK2 (Homo sapiens, UniProt Q96RR4) | 102 |
| GRK3 (Homo sapiens, UniProt P35626) | 99.1 |
| IKBKE (Homo sapiens, UniProt Q14164) | 101 |
| TGFBR2 (Homo sapiens, UniProt P37173) | 97.9 |
| MAP3K3 (Homo sapiens, UniProt Q99759) | 98.1 |
| Protein kinase C beta type, isoform beta-I (PRKCB, Homo sapiens, UniProt P05771) | 101 |
| IKBKB (Homo sapiens, UniProt O14920) | 110 |
| cGMP-dependent protein kinase 1, isoform beta (PRKG1, Homo sapiens, UniProt Q13976) | 95.8 |
| STK39 (Homo sapiens, UniProt Q9UEW8) | 83.7 |
| STK11 (Homo sapiens, UniProt Q15831) | 91.1 |
| PRKACA (Homo sapiens, UniProt P17612) | 100 |

Block 4
Compound: CC(C)(C(=O)O)[C@H](NC(=O)Cc1cccc(I)c1)c1ccc2oc(=O)[nH]c2c1
Method: Incucyte 3D growth
Concentration: 30 µM
Direction: higher = more growth
| cell line | setting | spheroid area |
| --- | --- | --- |
| KP-4 | 216 h | 6.04e+07 a.u. and 3.89e+07 a.u. and 3.81e+07 a.u. and 3.95e+07 a.u. and 3.88e+07 a.u. and 1.89e+07 a.u. |
| A375 | 192.52 h | 1.43e+08 a.u. and 1.51e+08 a.u. and 1.54e+08 a.u. and 1.42e+08 a.u. and 1.35e+08 a.u. and 1.28e+08 a.u. |
| NCI-H358 | 156 h | 6.82e+06 a.u. and 5.82e+06 a.u. and 6.25e+06 a.u. and 7.99e+06 a.u. and 7.39e+06 a.u. and 5.58e+06 a.u. |
| A375 | 30.52 h | 1.81e+07 a.u. and 1.6e+07 a.u. and 1.99e+07 a.u. and 1.16e+07 a.u. and 1.76e+07 a.u. |

Block 5
SMILES: CC(=O)N[C@@H](Cc1c[nH]c2ccccc12)C(=O)N[C@@H](CCC(=O)C=[N+]=[N-])C(=O)OC(C)C
Method: UPLC-MS/MS metabolomics
Species: C57BL/6 CES1-/- mice, EL4 tumour
Medium: EL4 tumour
Route: subcutaneous
Dose: 0.3 mg/kg/day DON equivalent
Time: 5 days
Setting: normalised to tissue mass
| test | peak intensity |
| --- | --- |
| measured: S-adenosylmethionine | 1.12e+07 a.u. and 1.28e+07 a.u. and 1.24e+07 a.u. and 7.04e+06 a.u. and 7.99e+06 a.u. |
| measured: N6-succinyladenosine | 179000 a.u. and 161000 a.u. and 134000 a.u. and 129000 a.u. and 132000 a.u. and 243000 a.u. |
| measured: UDP-glucose | 1.6e+06 a.u. and 2.06e+06 a.u. and 6.21e+06 a.u. and 4.98e+06 a.u. and 2.59e+06 a.u. and 8.32e+06 a.u. |

Block 6
Species: mouse
Medium: microsomes or S9
Concentration: 2 µM
Time: 0.5 h
| Structure (SMILES) | remaining compound |
| --- | --- |
| CCN(CC)C(=O)Cc1c(/C=C/c2ccccc2)[nH]c2ccccc12 | 0.0363% |
| Cc1oc(-c2cccc(F)c2F)nc1CN(C)CC1CCCNC1 (stereo not shown) | 0.425% |
| O=C(NCC1(c2cccs2)CCOCC1)c1ccc2ncsc2c1 | 3.34% |
| O=C(Cn1c(=O)oc2ccccc21)N[C@@H]1CCN(c2cnccn2)C[C@H]1O | 26.6% |
| Cc1cc(Cl)cc2c(=O)[nH]c(-c3cc(Br)nn3-c3ncccc3Cl)nc12 | 36.4% |
| O=C1C[C@H](n2nc(-c3ccc(F)cc3)oc2=S)[C@H]2CO[C@@H]1O2 | 7.17% |

Single results of other studies
| SMILES | test | system | setting | measurement | result |
| --- | --- | --- | --- | --- | --- |
| COc1ccc(-c2c(Nc3ccccn3)[nH]c3c(C4=CCCCC4)c(-c4ccccc4)nn3c2=O)cc1 | LC-MS/MS non-compartmental | human, plasma | oral, 200 mg twice daily, 12 h, cycle 1 | trough concentration | 9420 ng/mL |

Repeated from above (block 5):
| test | peak intensity |
| --- | --- |
| measured: S-adenosylmethionine | 1.12e+07 a.u. and 1.28e+07 a.u. and 1.24e+07 a.u. and 7.04e+06 a.u. and 7.99e+06 a.u. |
| measured: N6-succinyladenosine | 179000 a.u. and 161000 a.u. and 134000 a.u. and 129000 a.u. and 132000 a.u. and 243000 a.u. |
| measured: UDP-glucose | 1.6e+06 a.u. and 2.06e+06 a.u. and 6.21e+06 a.u. and 4.98e+06 a.u. and 2.59e+06 a.u. and 8.32e+06 a.u. |
